Experimental data of several laboratories.
Numbered parts are unrelated; each lists some results of a single study. Positions count from the first letter of the parent shown.

Sample 1 — technique: protein-binding microarray; form: double-stranded DNA, one strand shown; matrix: in vitro; concentration: 0.8 µM; setting: whole 60-bp probe, no competitor; reading: higher = stronger binding
Target: Centromere-binding protein 1, full length, N-terminal tag (CBF1, Saccharomyces cerevisiae, UniProt P17106, residues 1-351)
Chain of UniProt P17106 (whole entry, looked up): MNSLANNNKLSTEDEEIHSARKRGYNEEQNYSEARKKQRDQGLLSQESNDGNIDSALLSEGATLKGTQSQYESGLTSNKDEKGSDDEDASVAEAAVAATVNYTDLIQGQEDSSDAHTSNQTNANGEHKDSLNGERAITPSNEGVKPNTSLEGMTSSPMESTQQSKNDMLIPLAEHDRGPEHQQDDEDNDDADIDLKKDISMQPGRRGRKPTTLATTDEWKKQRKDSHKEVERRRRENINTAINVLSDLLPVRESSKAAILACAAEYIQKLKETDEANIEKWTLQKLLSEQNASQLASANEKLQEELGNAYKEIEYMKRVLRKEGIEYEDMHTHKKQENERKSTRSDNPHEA
The fluorescence intensity of `CTACTAGTATTCAATCACGTAAGGTGGAAGAGATTCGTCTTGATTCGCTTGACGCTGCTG` is reported as 582 a.u.
`CTAAACGTTGCTCCTCACCTGCATCTTGTAAGCTTCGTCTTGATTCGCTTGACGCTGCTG` has a fluorescence intensity of 516 a.u.
`CTATCAATTCTTCATCACCACCGTTCCATGCCCTTCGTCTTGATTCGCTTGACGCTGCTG` gave a fluorescence intensity of 551 a.u.
`CTAAAAGGACCACATCACCAGACTTATCTCTGGTTCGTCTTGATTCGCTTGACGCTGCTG` gave a fluorescence intensity of 501 a.u.
For `GAATGTTTTGTTGAAAATCACATGAGTGGACGGTAGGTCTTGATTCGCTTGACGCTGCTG`, the fluorescence intensity was 1310 a.u.
With `CTACAGTCACTCAGTCAGCTGATGCGATGCGATTTCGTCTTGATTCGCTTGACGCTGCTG` the fluorescence intensity was 2600 a.u.
`CTATGGAACGATAGGAACGTGTACCCTACCGCTTTCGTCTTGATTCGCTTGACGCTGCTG` gave a fluorescence intensity of 522 a.u.
`GAATTGTACATTCATGTGATAATTTGACGCGGATAGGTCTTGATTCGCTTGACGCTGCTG` gave a fluorescence intensity of 1140 a.u.
The fluorescence intensity of `CTAGCTCCACCAGCTGATGTGTGCATTTTTTTTTTCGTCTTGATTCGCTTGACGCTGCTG` is reported as 531 a.u.
`CTAATTTCTATTTACCGGGTGATGGCGGCGCGCTTCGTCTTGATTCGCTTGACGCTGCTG` gave a fluorescence intensity of 511 a.u.
The fluorescence intensity of `GAACGTCAAAGACAACACGTTGGCAAAGGTAAGTAGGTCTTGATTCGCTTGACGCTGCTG` is reported as 598 a.u.
For `CTATTACTCCAAGGGTTCGTGACGTCGAATTCCTTCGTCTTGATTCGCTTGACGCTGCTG`, the fluorescence intensity was 999 a.u.
`CTATGTTACATCTGTCACGGCATTCCAGCTGTATTCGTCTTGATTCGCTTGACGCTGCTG` gave a fluorescence intensity of 616 a.u.
For `TGTACGAAGCTATATCAGATGTGTATAGTAGTTAGGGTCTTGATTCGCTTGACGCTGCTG`, the fluorescence intensity was 549 a.u.
`GAATTCAATAAATGTCACCACAATACCGATGCTTAGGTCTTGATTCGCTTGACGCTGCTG` has a fluorescence intensity of 492 a.u.
`GAATTTTTATATACACGTGTGGCTCAAGCAAACTAGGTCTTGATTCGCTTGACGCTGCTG` gave a fluorescence intensity of 4650 a.u.
The fluorescence intensity of `CTAGTAACTCAACATCACGAACGACGTTTATGTTTCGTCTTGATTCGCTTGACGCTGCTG` is reported as 524 a.u.
For `CTAAGAAAATCCAATCACGGTGTGACTGGTATCTTCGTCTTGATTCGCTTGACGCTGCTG`, the fluorescence intensity was 758 a.u.
The fluorescence intensity of `GAAGGGGCAAATAATAACGTGGGAATAACAAGCTAGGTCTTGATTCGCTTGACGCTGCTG` is reported as 556 a.u.

Sample 2 — target: ATF1, bZIP domain (human); technique: DHFR protein complementation; matrix: yeast; baseline: wild-type JUN-FOS pair; reading: higher = stronger binding
Setting: single substitutions, most at no-binding floor
Starting sequence: JUN, bZIP domain (human); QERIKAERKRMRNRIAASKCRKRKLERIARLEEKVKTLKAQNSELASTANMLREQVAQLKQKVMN; partner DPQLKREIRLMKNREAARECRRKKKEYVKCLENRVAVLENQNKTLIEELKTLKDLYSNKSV
`A40C` gave a binding fitness of -1.58 natural log.
`A29M` has a binding fitness of -1.48 natural log.
For `E32P`, the binding fitness was -1.57 natural log.
For `Q55S`, the binding fitness was -1.46 natural log.
The binding fitness of `M51S` is reported as -1.46 natural log.
`E33L` gave a binding fitness of -1.41 natural log.
With `L52P` the binding fitness was -1.55 natural log.
For `E44S`, the binding fitness was -1.52 natural log.
With `E33V` the binding fitness was -1.53 natural log.
For `E32Q`, the binding fitness was -1.49 natural log.
`E33M` has a binding fitness of -1.59 natural log.
With `V35A` the binding fitness was -1.48 natural log.
For `A57H`, the binding fitness was -1.46 natural log.
The binding fitness of `K36R` is reported as -1.54 natural log.
`L52M` gave a binding fitness of -1.62 natural log.
`A49N` gave a binding fitness of -1.6 natural log.
For `L31N`, the binding fitness was -1.57 natural log.
`T37M` has a binding fitness of -1.09 natural log.

Sample 3 — technique: EMSA with sequencing; form: double-stranded DNA, one strand shown; matrix: in vitro; concentration: 10 and 20 nM; baseline: negative control set to 0; reading: higher = stronger binding
Target: Hepatocyte nuclear factor 3-alpha (Foxa1, Mus musculus, UniProt P35582, residues 1-468, full length assumed)
Chain of UniProt P35582 (whole entry, looked up): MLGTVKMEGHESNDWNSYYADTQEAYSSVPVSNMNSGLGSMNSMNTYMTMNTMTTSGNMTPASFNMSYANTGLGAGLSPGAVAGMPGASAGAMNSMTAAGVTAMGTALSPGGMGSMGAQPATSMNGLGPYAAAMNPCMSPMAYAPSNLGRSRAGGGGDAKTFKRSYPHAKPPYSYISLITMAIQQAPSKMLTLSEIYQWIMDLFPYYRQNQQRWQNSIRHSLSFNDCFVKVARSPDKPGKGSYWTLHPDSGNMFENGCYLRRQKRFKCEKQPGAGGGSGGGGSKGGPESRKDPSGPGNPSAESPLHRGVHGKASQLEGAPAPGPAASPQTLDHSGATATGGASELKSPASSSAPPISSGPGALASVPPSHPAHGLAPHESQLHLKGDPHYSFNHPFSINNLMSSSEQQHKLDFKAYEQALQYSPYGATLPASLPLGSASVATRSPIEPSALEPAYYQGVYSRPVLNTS
Setting: whole designed probe, mean of two concentrations, ends assumed
For `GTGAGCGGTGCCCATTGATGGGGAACATCTTCCCCCTCTTCCTTGCCCCACCAGCTCACCTTCCCGGGTTATTTGCAGATAGGAAAATAAATAAAGCCGGCATTCGTTAACCCTCTTCTGGCGCAAACTGCTGTTTGCTCTGGATGAATCATGGTCCTTTGGCGAGGCGTGGCTCCGGGAGAGCAAAGCACCGTGTCAGGGCCATGATCCGGGGTGGCCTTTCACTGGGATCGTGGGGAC`, “normalised bound fraction” read 0.344 ratio.
Under “normalised bound fraction”, `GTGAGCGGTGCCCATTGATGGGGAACATCTTCCCCCTCTTCCTTGCCCCACCAGCTCACCTACGGGGGTTATTTGCAGATAGGAAAATAAATAAAGCCGGCATTCGTTAACGCAGTTCACGCGCATACTGCTGTTTGCTCTGGATGAATCATGGTCCTTTGGCGAGGCGTGGCTCCGGGAGAGCAAAGCACCGTGTCAGGGCCATGATCCGGGGTGGCCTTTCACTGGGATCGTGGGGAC` is recorded as 0.35 ratio.
For `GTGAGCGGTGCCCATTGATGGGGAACTTTTTTCTGTACAGGGAAAAATAGTGAATATTTCAAAAATGTGAATCAAAGAGTCTCTGTGGCAACTACTCATTGATGCATATCAGACAATATGCAAACAAATGAGTGTGTCTGTGTTCCAATAAAACTGTATTTACAAAAGCAGAAGGCCACCCATGTGCCAATGTCCAAAGTTTCTCAACCAACCCCTGGTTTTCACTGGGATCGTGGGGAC`, “normalised bound fraction” read 0.389 ratio.
`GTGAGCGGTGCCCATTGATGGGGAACATCCACGAACCTGGCCCTGTCTGGTAACCACAGTGAACCATCGCAAGATACAGCACTATGTGCCCAGTTGGGCTGGTAATGTCACACAAATGTGTCAACACTGGCACATCCTCAGGTAATGACTCACGTACTTGTTTTTGGAGAGGGACTAGACCTTCATCCTTGAGGTGAAGAAGATTTTCTCTCCAGGGTGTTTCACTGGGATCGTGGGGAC`: “normalised bound fraction” 0.0486 ratio.
Under “normalised bound fraction”, `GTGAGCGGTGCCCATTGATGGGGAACCAAGGCTGCTCACCCACTTCTTTAACCATTCTTCAAAAAAGTGAGCTGTTGTTATTGAACTTTTTATTATTACTTAATTACAAGAAAAAACAAAGTAATCTACCAAAAAAAATATAGTGTTGAGAAAATGCCAAGGCTGTTCACCCACTTCTTTAACCATTCTTCAAATTTACCATATATATATTTTTTTGACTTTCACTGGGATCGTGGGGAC` is recorded as 1.6e-05 ratio.

Sample 4 — target: CEP164, C-terminal peptide (human); technique: DHFR complementation, deep sequencing; matrix: yeast; baseline: wild type; reading: higher = weaker binding
Setting: single substitutions, model-inferred values
Starting sequence: PDZK1, PDZ domain 2 (human); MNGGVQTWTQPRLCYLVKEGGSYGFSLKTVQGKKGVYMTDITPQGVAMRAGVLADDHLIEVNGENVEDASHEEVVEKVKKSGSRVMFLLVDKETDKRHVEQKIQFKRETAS; partner HNRVKVYRF
`V74C` — result for “binding free energy change”: 0.142 kcal/mol.
Under “binding free energy change”, `G20W` is recorded as 0.187 kcal/mol.
`V46I` — result for “binding free energy change”: 0.116 kcal/mol.
`P43Q`: “binding free energy change” 0.196 kcal/mol.
`H57Y`: “binding free energy change” -0.216 kcal/mol.
`V36C`: “binding free energy change” -0.199 kcal/mol.
`Q104A`: “binding free energy change” -0.151 kcal/mol.
`K102S`: “binding free energy change” -0.114 kcal/mol.
For `V74F`, “binding free energy change” read 0.769 kcal/mol.
Under “binding free energy change”, `G20C` is recorded as 0.235 kcal/mol.
`K80T`: “binding free energy change” 0.639 kcal/mol.
`L16Y` — result for “binding free energy change”: 1.79 kcal/mol.
Under “binding free energy change”, `K18Y` is recorded as 0.606 kcal/mol.
Under “binding free energy change”, `R107P` is recorded as -0.168 kcal/mol.
Under “binding free energy change”, `M38P` is recorded as 1.87 kcal/mol.
For `F105M`, “binding free energy change” read -0.241 kcal/mol.
For `L27H`, “binding free energy change” read 1.58 kcal/mol.
`Q31N` — result for “binding free energy change”: 0.0885 kcal/mol.
Under “binding free energy change”, `L58S` is recorded as -0.0873 kcal/mol.
`V61S` — result for “binding free energy change”: 1.35 kcal/mol.
Under “binding free energy change”, `F87T` is recorded as 1.52 kcal/mol.

Sample 5 — technique: Sort-seq; refers to: YFP reporter; matrix: E. coli; setting: PhoQ-PhoP variant library; with: 10 µM Mg2+; baseline: high Mg2+ state; reading: higher = stronger signaling
Molecule: PhoQ, residues 284 288 289 292 302 303 DDMDFR
PhoP, residues 12 14 15 18 19 LHTVL (Escherichia coli, UniProt P23836) — fold induction: 0.747.
For PhoP, residues 12 14 15 18 19 NQCAL (Escherichia coli, UniProt P23836): fold induction read 0.68.
The fold induction was 0.715 (PhoP, residues 12 14 15 18 19 TQAML (Escherichia coli, UniProt P23836)).

Sample 6 — target: CCNB1, cyclin fold, Cln2 fusion (human); technique: yeast growth competition, sequencing; matrix: yeast; setting: weak parent motif; baseline: not given; reading: higher = stronger binding
Starting sequence: TICRR docking peptide (human); TKVRRNLFNQELL
`TKVRRNLFNQELA [L13A]` — result for “normalised enrichment score”: 1.15.
`TKVRKNLLNQELL [R5K F8L]`: “normalised enrichment score” 0.397.
`TKARRNLFNQELL [V3A]` — result for “normalised enrichment score”: -1.12.
`TKVARNLFNQELL [R4A]`: “normalised enrichment score” -0.535.
`TKVRRNLFNQALL [E11A]`: “normalised enrichment score” 0.0132.
`TAVRRNLFNQELL [K2A]`: “normalised enrichment score” 1.48.
`AKVRRNLFNQELL [T1A]`: “normalised enrichment score” 1.14.

Repeated from above (sample 4):
`L16Y` — result for “binding free energy change”: 1.79 kcal/mol.
For `V74F`, “binding free energy change” read 0.769 kcal/mol.
`Q31N` — result for “binding free energy change”: 0.0885 kcal/mol.
For `F105M`, “binding free energy change” read -0.241 kcal/mol.
`K102S`: “binding free energy change” -0.114 kcal/mol.
`P43Q`: “binding free energy change” 0.196 kcal/mol.
Under “binding free energy change”, `L58S` is recorded as -0.0873 kcal/mol.
